Assay results collected from several papers.
Lines come from different studies, so protocols differ. Several values in a cell are separate wells, animals, samples, runs or records. ± marks the error that the study gave.

SMILES | target or system | assay | system | conditions | scale | measurement | value
CN(C)CCCCCN(C)Cc1cc2ccccc2o1 | Trypanosoma cruzi | reporter mRNA translation, inhibitor, item: Renilla luciferase mRNA | cell-free extract | concentration not given, test 2 | relative to: positive over negative control | translation activity | 103%
CC[C@H]1CC[C@H]2[C@@H]3C[C@@H](O)[C@@]4(O)C[C@H](N)CC[C@]4(C)[C@H]3CC[C@]12C | BV-2 | cell count, high-content imaging | – | geometric mean | – | IC50 | 1.22 µM
O=C(OCc1ccc(O[C@@H]2O[C@H](COC(=O)c3ccc(O)cc3)[C@@H](O)[C@H](O)[C@H]2O)cc1)c1ccc(O)cc1 | T47D breast cancer | cell viability, MTT | DMEM with 10% FBS | 48 h | – | IC50 | > 200 µM
CC(C)=CC1OC(C)(C)C2C=C3C(=O)C(Cl)=CC(O)C3C3C(O)C4OC4C(=O)C132 (centres unmarked) | JeKo-1 | cell growth or viability, MTS | – | – | – | IC50 | 0.75 µM
Cn1ncc(-c2ccc3c(=O)[nH]nc(CN)c3c2)c1-c1c(F)c(Cl)cc(OC2CC2)c1C#N | HCC4006 | cell viability, inhibitor, CellTiter-Glo | – | 120 h, baseline-subtracted | – | IC50 | 0.05 µM
Cc1ncsc1-c1ccc(C(C)NC(=O)C2CC(O)CN2C(=O)C(NC(=O)CCCCCCCCCCN2CCCC(Nc3ncc(Cl)c(Nc4ccccc4S(=O)(=O)C(C)C)n3)C2)C(C)(C)C)cc1 (centres unmarked) | 22Rv1 | RNA-seq, item: TIRAP mRNA | – | concentration not given | relative to: DMSO | log2 fold change | -1.86
CCOc1cncc(-c2ccc(NC(=O)C3(c4ccnc(NS(=O)(=O)C5CC5)n4)CCOCC3)nc2)n1 | lung cancer | cell viability, CellTiter-Glo | DMSO 0.1% | 72 h, line code 586 | – | IC50 | 6.65 µM
CC1(C)CC(=O)C2=C(C1)Oc1ccc3ccccc3c1C2c1c[nH]c2ccccc12 (centres unmarked) | 3T3-L1 | cell growth or viability, MTT | – | 72 h | – | IC50 | > 100 µg/mL
CN1CCCNC(=O)c2cccc(c2)C(=O)NCCCN(C)CCCNc2cccc3c2C(=O)c2cccc(c2C3=O)NCCC1 | mouse bone marrow cells | CCK-8 | – | 0.05 µM, 48 h | relative to: untreated | viability | 99.2%
COc1ccc(NC(=O)c2ccc3[nH]c(-c4ccc(N(C)C)cc4)nc3c2)cn1 | YAPC | cell growth, CellTiter-Glo | – | – | – | IC50 | 5.73 µM
COc1c(C)c(OC(=O)c2ccc3ccccc3c2)c(C)c(O)c1C(=O)/C=C/c1ccccc1 | FaDu | cell growth or viability, SRB | – | 72 h | – | IC50 | > 50 µM
Cc1nn(-c2cccc(N)c2)c(=O)c2cnc(Nc3ccc(N4CCNCC4)cc3)nc12 | PLK3 (Homo sapiens, UniProt Q9H4B4) | kinase activity, inhibitor, SelectScreen kinase profiling | – | – | – | IC50 | > 10 µM
C=CC(=O)N1CCCC(n2c(=O)c3ncccc3n(Cc3ccc(Oc4ccccc4)cc3)c2=O)C1 (centres unmarked) | MEC1 | cell growth or viability, MTT | – | 72 h | – | IC50 | 8 µM
C[n+]1c(/C=C/c2ccc(N(c3ccccc3)c3ccccc3)cc2)cc(/C=C2\Sc3ccccc3N2CCCN2CCCC2)c2ccccc21 | HK-2 | cell growth or viability, MTT | – | 36 h | – | IC50 | 19.1 µM
N#Cc1c(N)nc2c(c1-c1ccc(CO)o1)CCc1cc(O)ccc1-2 | HBP-ALL | cell viability, CellTiter-Glo | – | – | no inhibition at 100 µM | IC50 | 8.1 µM
CCCC[C@H](NC(C)=O)C(=O)N[C@@H](CO)C(=O)N[C@H](C(=O)N1CCC[C@H]1C(=O)N[C@]1(C)CCCCCCC=CCCC[C@@](C)(C(=O)N[C@@H](Cc2ccccc2)C(=O)N[C@@H](CCCCN)C(=O)N[C@@H](CCCNC(=N)N)C(=O)N[C@@H](CC(C)C)C(=O)N[C@@H](CCC(N)=O)C(N)=O)NC(=O)[C@H](CCCNC(=N)N)NC(=O)[C@H](CCCC)NC(=O)[C@H](CC(C)C)NC(=O)[C@H](CCCNC(=N)N)NC(=O)[C@H](CCCNC(=N)N)NC(=O)[C@H](CCCNC(=N)N)NC1=O)[C@@H](C)O | proteinase K | LC-MS | – | 25 µM, 61.5 min, pH 7.4 | – | remaining peptide | 81% and 79.7%
CC1(C)CC(=O)C(C2C3=C(CC(C)(C)CC3=O)Oc3ccc4ccccc4c32)=C(O)C1 (centres unmarked) | 3T3-L1 | cell growth or viability, MTT | – | 72 h | – | IC50 | 26.1 µg/mL
CCCCCC(=O)[O][Pt]([Cl])([Cl])[O]C(=O)CCCCC.N.N | A549/DDP cisplatin-resistant | MTT | – | 48 h, with: survivin siRNA 10 nM transfected 24 h before | – | IC50 | 3.05 ± 3.75 µM
O=C1CCC(N2C(=O)c3ccc(N4CC(C(=O)N5CC(CN6CCC(CNC(=O)c7cccc(-c8noc(C(F)(F)F)n8)c7)(c7nc(-c8ccccc8)cs7)CC6)C5)C4)cc3C2=O)C(=O)N1 (centres unmarked) | JeKo-1 CRBN knockout | cell proliferation | – | 168 h | – | IC50 | 7 ± 2.29 µM

SMILES | target or system | assay | system | conditions | scale | measurement | value
CC[C@H]1CC[C@H]2[C@@H]3C[C@@H](O)[C@@]4(O)C[C@H](N)CC[C@]4(C)[C@H]3CC[C@]12C | BV-2 | cell count, high content imaging | – | 24 h, uptake, myelin membrane debris, pHrodo | – | IC50 | 1 µM
CCCCCCC(=O)[O][Pt]([NH2])([NH2])([Cl])([Cl])[O]C(=O)CCC(C)C1CCC2C3CCC4CC(O)CCC4(C)C3CCC12C (centres unmarked) | RWPE-1 normal prostate | cell viability, MTT | – | 72 h | – | IC50 | 1.7 ± 0.4 µM
CC(=O)NCCOCCNC(=O)c1cc(C(=O)N2CCNCCNCCNCC2)c(O)c(C(=O)N2CCNCCNCCNCC2)c1 | PK-59 | cell growth or viability, MTT | – | 24 h | – | IC50 | > 1000 µM
Nc1ncc(-c2cc(-c3cnn(CC(F)(F)F)c3)ncc2F)nc1C(=O)NC1CNCC(F)C1 (centres unmarked) | NEK9 | KINOMEscan | – | 1 µM | relative to: DMSO control | remaining binding | 96%
CN1CCC(N[C@@H]2CCc3[nH]c4c(C(N)=O)ccc(-c5ccccc5Cl)c4c3C2)CC1 | BGC-823 | cell growth or viability | – | – | – | IC50 | 0.00894 µM
CNS(=O)(=O)Nc1nccc(Cc2c(C)c3ccc(Oc4ncccc4F)cc3oc2=O)c1F | KLE | cell viability | – | 7 days | – | IC50 | 0.000207 µM
CCCCCCCCCCCCSCC(COCC(O)C[N+](C)(CCO)CCO)SCCCCCCCCCCCC (centres unmarked) | BHK-21 | cell growth or viability, MTT | – | – | – | IC50 | 79.9 µM
CCCCCCCC(=O)Oc1c(C)c(OC)c2c(/C=C/c3ccccc3)c(CCCCCC)c(=O)oc2c1C | FaDu | cell growth or viability, SRB | – | 72 h | – | IC50 | > 50 µM
O=C(OCc1ccc(O[C@@H]2O[C@H](CO)[C@@H](O)[C@H](O)[C@H]2O)cc1)c1ccc(O)cc1 | T47D breast cancer | cell viability, MTT | DMEM with 10% FBS | 48 h | – | IC50 | > 200 µM
CNC(=O)C1CCCN(C(=O)C2CC3CCC2N3C(=O)[C@@H]2C[C@@H](O)CN2C(=O)NCc2cccc(Cl)c2F)C1 (mixture of isomers) | Cytochrome P450 2C9 (CYP2C9, Homo sapiens, UniProt P11712) | preincubation with NADPH | human | 5.56 µM | relative to: negative control | remaining activity | 105% and 109% and 95.5%
C=CC(=O)Nc1cccc(Cn2ncc3cnc(Nc4cnn(CCOC)c4)nc32)c1 | LYN human | binding, KINOMEscan | – | 100 nM | lower = stronger binding | percent of control | 81%
CC(C)c1ccc(N(C)c2ccc3c(c2)OCC[C@H]3CNc2cnccc2C(=O)O)cc1 | SNU-16 | cell growth or viability, ATP luminescence | – | 7 days | – | IC50 | 0.00422 µM
N#Cc1c(N)nc2c(c1-c1ccc(CO)o1)Cc1cccc(O)c1-2 | HBP-ALL | cell viability, CellTiter-Glo | – | – | no inhibition at 100 µM | IC50 | > 100 µM
COc1cc(-c2cn(C)c(=O)c3cnccc23)c(OC)cc1CN(C)C | Kasumi 1 | cell growth or viability, ATP luminescence | – | – | – | IC50 | 10 µM
COC1CN([C@H]2CC[C@H]([C@@]3(C)Oc4c(Cl)cc(C(=O)NCc5c(SC)cc(C)[nH]c5=O)c(C)c4O3)CC2)C1 | – | RNA-seq, item: PTX3 mouse homolog | mouse, HT-1376 xenograft, whole blood | dose not given | relative to: vehicle | log2 fold change | 2.87
OC(COc1ccc2cc(Br)ccc2c1)Cn1ccnc1 (centres unmarked) | Trypanosoma cruzi | reporter mRNA translation, inhibitor, item: Renilla luciferase mRNA | cell-free extract | concentration not given, test 1 | relative to: positive over negative control | translation activity | 107%
C=C1C(=O)OC2C1CCC(C)(O)C13C=CC(C)(C21)C1(C3)C(=O)OC2C3C(C)C(=O)CC3C(=C)CC(OC(C)=O)C21 (centres unmarked) | AML12 | lipid accumulation, Nile Red staining | – | with: palmitate/oleate | – | IC50 | 4.59 ± 0.58 µM
CC(C)OC(=O)[C@H](CO)NCc1cc(Cl)c(OCc2cccc(-c3ccccc3)c2Br)cc1OCc1cccnc1 | HK-2 | cell growth or viability, MTT | – | – | – | IC50 | > 10 µM
C=CC(=O)Nc1cc(Nc2nccc(-c3cn(C)c4ccccc34)n2)c(OC)cc1N(C)CCN(C)C | Ba/F3 EGFR 19Del/C797S BBT-176-resistant BR1 | cell growth | – | 72 h | – | IC50 | > 1 µM

A few entries again:
SMILES | target or system | assay | system | conditions | scale | measurement | value
Cc1nn(-c2cccc(N)c2)c(=O)c2cnc(Nc3ccc(N4CCNCC4)cc3)nc12 | PLK3 (Homo sapiens, UniProt Q9H4B4) | kinase activity, inhibitor, SelectScreen kinase profiling | – | – | – | IC50 | > 10 µM
C=CC(=O)N1CCCC(n2c(=O)c3ncccc3n(Cc3ccc(Oc4ccccc4)cc3)c2=O)C1 (centres unmarked) | MEC1 | cell growth or viability, MTT | – | 72 h | – | IC50 | 8 µM
C[n+]1c(/C=C/c2ccc(N(c3ccccc3)c3ccccc3)cc2)cc(/C=C2\Sc3ccccc3N2CCCN2CCCC2)c2ccccc21 | HK-2 | cell growth or viability, MTT | – | 36 h | – | IC50 | 19.1 µM
